# Assay results of several laboratories.
# Protocols differ between the studies behind these lines. ± marks the error that the study gave.
Compound,assay,test system,conditions,quantity,value
O=C1CC(=O)N(c2ccccc2)c2cc(Cl)ccc2N1,,"C57BL/6 mice, whole blood","oral, 30 mg/kg",Cmax,11.5 µM
CCCCCCCC(=O)SCC/C=C/[C@@H]1CC(=O)NCc2nc(cs2)C2=N[C@@](C)(CS2)C(=O)N[C@@H](C(C)C)C(=O)N1,refers to: thiol form,"female NIH Swiss mice, whole blood","intravenous bolus, 5 mg/kg, two-compartment model",Cmax,4.8 µg/mL
C[C@H](CCC(=O)N[C@@H](CCCCNC(=O)C(F)(F)F)C(=O)O)[C@H]1CC[C@H]2[C@@H]3[C@H](O)C[C@@H]4C[C@H](O)CC[C@]4(C)[C@H]3C[C@H](O)[C@]12C,,"C57BL/6J mice, plasma","oral, 50 mg/kg",Cmax,24.8 ± 19.6 µM
CSCC[C@H](NC(=O)CNC(=O)[C@H](CC(=O)O)NC(=O)[C@@H](NC(=O)[C@@H](NC(=O)[C@@H](NC(=O)CNC(=O)[C@H](CCC(=O)O)NC(=O)[C@H](CCSC)NC(=O)[C@H](CC(=O)O)NC(=O)[C@H](C)NC(=O)[C@H](C)NC(=O)[C@@H](NC(=O)[C@H](CO)NC(=O)[C@@H](N)CC(C)C)[C@@H](C)O)C(C)C)C(C)C)[C@@H](C)O)C(=O)N[C@@H](C)C(=O)N[C@@H](CO)C(=O)NCC(=O)N[C@@H](CC(C)C)C(=O)N[C@@H](CC(=O)O)C(=O)N[C@@H](CCCCN)C(=O)N[C@@H](CC(=O)O)C(=O)N[C@@H](Cc1ccc(O)cc1)C(=O)N[C@@H](CC(C)C)C(=O)N[C@@H](CCCCN)C(=O)N1CCC[C@H]1C(=O)N[C@@H](CC(=O)O)C(=O)N[C@@H](CC(=O)O)C(=O)O,,"male CD-1 mice, serum","intravenous, 480 mg/kg",Cmax,2470 µg/mL
CCn1ccc(-c2cc(-c3cnn(C)c3)cc([C@@H](C)NC(=O)c3cc(OCCN(C)C)ccc3C)c2)n1,,"C57BL/6J mice, male, plasma","oral, 50 mg/kg",Cmax,4.54 µg/mL
Cc1cc(Nc2nc(C[C@@]3(C(=O)O)CCN(Cc4cccc(Cl)c4F)[C@H](C)C3)cc(C)c2F)n[nH]1,,"BALB/c nude mice, female, NCI-H446 xenograft, tumour tissue","oral, 10 mg/kg single",Cmax,1510 ng/g
CC[C@H](C)[C@H](NC(=O)[C@H](C)NC(=O)[C@H](CCCCN)NC(=O)[C@H](CC(C)C)NC(=O)[C@H](Cc1ccccc1)NC(=O)[C@@H](N)CC[Se]C)C(=O)N[C@@H](CCCCN)C(=O)N[C@@H](CCCCN)C(=O)N[C@@H](Cc1ccccc1)C(=O)NCC(=O)N[C@@H](CCCCN)C(=O)N[C@@H](CCC(=O)O)C(=O)N[C@@H](Cc1ccccc1)C(=O)N[C@@H](CCCCN)C(=O)N[C@@H](CCCCN)C(=O)N[C@H](C(=O)NCC(=O)N[C@@H](C)C(=O)N[C@@H](CCCCN)C(=O)N[C@@H](CC(C)C)C(=O)N[C@@H](CCCCN)C(=O)O)[C@@H](C)CC,refers to: selenium,"BALB/c mice, serum","intraperitoneal, 70 mg/kg",Cmax,20 µg/mL
CCC[C@@H]1O[C@@H]2C[C@H]3[C@@H]4C[C@H](F)C5=CC(=O)CC[C@]5(C)[C@@]4(F)[C@@H](O)C[C@]3(C)[C@]2(C(=O)CO)O1,,"CD1 mice, plasma","subcutaneous, 0.2 mg/kg",Cmax,0.074 µM
CC1=CC(C)(C)N=C2C=CC(=O)C=C12,,"mice, plasma","oral, 425 mg/kg",Cmax,2.15 µg/mL
C[C@@](O)(C(F)F)[C@H](NC(=O)c1ccc(C#CC#CC2CC2)cc1)C(=O)NO,,"CD-1 mice, plasma","intravenous, 40 mg/kg",Cmax (extrapolated C0),60.6 ± 5 µg/mL
CCOP(=O)(OCC)OCCCCOC(=O)CC1=C(C)C(=Cc2ccc([S+](C)[O-])cc2)c2ccc(F)cc21 (centres unmarked),HPLC,"mice, lung","inhalation, dose not given, 8 min exposure",Cmax,22.2 nmol/g tissue
